Assay results of several laboratories.
Each numbered part is a random draw from the data of one study; scales do not carry over between parts.

Set 1 — method: protein-binding microarray; molecule type: double-stranded DNA, one strand shown; medium: in vitro; tested at: 250 nM; setting: 60-bp whole probe; added: salmon DNA 0.4 mg/ml; relative to: random background probes; direction: higher = stronger binding
Target: Interferon regulatory factor 5, full length, phosphomimetic (IRF5, Homo sapiens, UniProt Q13568-2, residues 1-514, K96S/S451D/S453D/S456D/S462D)
For `GCCTAGCACTCATCTTTTTTGTTCCAACTGTGCTAGGTCTTGATTCGCTTGACGCTGCTG`, the log fluorescence was 1.24 z-score.
With `GCCTAGCACTTAAGACTGCTACTGCTTTAGTGCTAGGTCTTGATTCGCTTGACGCTGCTG` the log fluorescence was 0.154 z-score.
`GCCTAGCACTTACATATCGGGTTTCGATTAGTGCTAGTCTTGATTCGCTTGACGCTGCTG` gave a log fluorescence of 8.02 z-score.
`GCCTAGCACTTAGGTCTCCTTATTCTTTAGTGCTAGGTCTTGATTCGCTTGACGCTGCTG` gave a log fluorescence of 0.112 z-score.

Set 2 — method: competition protein-binding microarray; molecule type: double-stranded DNA, one strand shown; medium: in vitro; tested at: 2 µM; added: Pho4 competitor, 0.05 µM; direction: higher = stronger binding; shared flanks, not repeated: … GTCTTGATTCGCTTGACGCTGCTG
Target: Centromere-binding protein 1, full length, His-tagged (CBF1, Saccharomyces cerevisiae, UniProt P17106, residues 1-351)
Sequence of UniProt P17106 (whole entry, looked up): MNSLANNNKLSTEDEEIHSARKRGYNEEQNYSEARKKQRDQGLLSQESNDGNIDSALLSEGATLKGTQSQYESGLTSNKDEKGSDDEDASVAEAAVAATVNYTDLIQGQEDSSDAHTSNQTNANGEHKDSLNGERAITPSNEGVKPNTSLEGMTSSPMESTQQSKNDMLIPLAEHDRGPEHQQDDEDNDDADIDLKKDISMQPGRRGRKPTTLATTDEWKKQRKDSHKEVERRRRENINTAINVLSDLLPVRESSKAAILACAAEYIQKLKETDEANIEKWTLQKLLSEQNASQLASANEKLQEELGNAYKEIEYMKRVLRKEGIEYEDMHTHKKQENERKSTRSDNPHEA
Setting: whole 60-bp probe, lowest competitor level
For `CAACAAGCCTGTTACACCATGACAACAGATCCTTCT`, the fluorescence intensity was 76.1 a.u.
With `CATACCCAACCTTGACCGGTGGGTGAAGATATTTGT` the fluorescence intensity was 62.3 a.u.
`CTTTCCCGATCTTGGCCTGTGGGTGTAGCACATTTG` gave a fluorescence intensity of 60 a.u.
`AAATTACTAAGTTGGAAGGTGGGTGACGCCGTATGA` has a fluorescence intensity of 59.9 a.u.
For `AGTAAGAACAATACCCACGTGCTTTTCAATGTACAA`, the fluorescence intensity was 1960 a.u.
`TTATCAGTTCTACAGCACGCAGAGAAAAGTAAACGA` gave a fluorescence intensity of 75.6 a.u.

Set 3 — method: RNA Bind-n-Seq; molecule type: RNA; medium: in vitro; tested at: 365 nM; relative to: no-protein control; direction: higher = stronger binding
Target: RNA binding protein fox-1 homolog 2, RRM domain, GST-SBP tag (RBFOX2, Homo sapiens, UniProt O43251-10, residues 100-194)
Setting: natural RNA segment, single round, ends assumed
Residues (chain): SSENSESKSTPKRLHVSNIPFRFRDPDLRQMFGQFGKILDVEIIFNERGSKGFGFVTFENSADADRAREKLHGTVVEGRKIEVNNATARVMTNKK
Under “RBNS enrichment (R)”, `GGGAGUUCUACAGUCCGACGAUCGGCUCCAUCCUUCUACUUCAACCCUCAGAGGAGCAGACAGGUGCAAAUAAACAACAGACUUUAUUAACCUUCUGAAGCAGCUUUUUCCAUCUCCCGUCUUAGUCCUGUCCUGGAAUUCUCGGGUGCCAA` is recorded as 0.508.
`GGGAGUUCUACAGUCCGACGAUCUGCUGGGGCUUCCCCUUCGCCACACAGAAGCCUGCUUAGUGCUUUCUGCACCAGACAACCUGUUGAGGCGUAUAACCUGAUCUGUACAUUUUUUUAAGUGUGCAGGGCAGUGGAAUUCUCGGGUGCCAA`: “RBNS enrichment (R)” 0.19.
`GGGAGUUCUACAGUCCGACGAUCACAUAAGUUCCUUCUUCUGUAGUCCCCCCCAAAAAACCUCAGAAACCUCAUAAUUCUCACACAUGGCAUUUCUAAUGACAGGCAGGCCCUCUUCCAUGGUGCCGGCCAGAUGGAAUUCUCGGGUGCCAA` — result for “RBNS enrichment (R)”: 0.387.
`GGGAGUUCUACAGUCCGACGAUCUGAUUAGGUGGCCUUUUCUGUGCAGUUACUAAUCACAGGAAUUUGGUAGUAGUGAAAAUCAGGUUUGCUGUGUUCUGCUUUGAGGCCUGGAAUCUUUUAUCAUUAAACACUGGAAUUCUCGGGUGCCAA` — result for “RBNS enrichment (R)”: 0.564.

Mixed results
With `PhoQ, residues 284 288 289 292 302 303 DDMDFR` the fold induction was 0.841 (PhoP, residues 12 14 15 18 19 TPWLV (Escherichia coli, UniProt P23836); Sort-seq, refers to: YFP reporter; E. coli; PhoQ-PhoP variant library, added: 10 µM Mg2+; relative to: high Mg2+ state, higher = stronger signaling).

For quick reference, copied from above (set 2):
With `CATACCCAACCTTGACCGGTGGGTGAAGATATTTGT` the fluorescence intensity was 62.3 a.u.
